Measurements from different studies.
Every numbered part comes from another study and shows a few of its results, in no order. Positions count from the first letter of the parent shown.

Series 1
Target: Hepatocyte nuclear factor 3-alpha (Foxa1, Mus musculus, UniProt P35582, residues 1-468, full length assumed)
Sequence of UniProt P35582 (whole entry, looked up): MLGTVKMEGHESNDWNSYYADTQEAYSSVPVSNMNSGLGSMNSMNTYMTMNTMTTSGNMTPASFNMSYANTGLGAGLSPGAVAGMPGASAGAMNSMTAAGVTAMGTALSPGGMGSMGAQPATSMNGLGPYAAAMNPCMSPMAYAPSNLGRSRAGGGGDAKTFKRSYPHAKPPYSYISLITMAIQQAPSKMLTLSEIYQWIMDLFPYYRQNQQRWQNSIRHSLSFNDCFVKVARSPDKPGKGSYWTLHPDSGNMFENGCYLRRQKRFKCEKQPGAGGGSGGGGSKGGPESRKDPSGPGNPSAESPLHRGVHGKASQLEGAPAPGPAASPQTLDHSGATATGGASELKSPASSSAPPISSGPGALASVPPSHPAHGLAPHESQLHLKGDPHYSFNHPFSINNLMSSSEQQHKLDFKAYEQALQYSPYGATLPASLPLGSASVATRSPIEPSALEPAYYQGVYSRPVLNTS
Method: EMSA with sequencing
Form: double-stranded DNA, one strand shown
Medium: in vitro
Tested at: 10 and 20 nM
Notes: whole designed probe, mean of two concentrations, ends assumed
Relative to: negative control set to 0
Reading: higher = stronger binding
Constant ends, left off below: GTGAGCGGTGCCCATTGATGGGGAAC … TTTCACTGGGATCGTGGGGAC
Sequence	normalised bound fraction [ratio]
ATCTTCCCCCTCTTCCTTGCCCCACCAGCTCACCTTCCCGGGTTATTTGCAGATAGGAAAATAAATAAAGCCGGCATTCGTTAACGCAGTTCACGCGCATACTGCTGTTTGCTCTGCATGAATCATGGTCCTTACGCGAGGCGTGGCTCCGGGAGAGCAAAGCACCGTGTCAGGCGCATGATCCGGGGTGGCC	0.359
ATTGTACCTAGCTTCAATACAGTTATCTAAACCAGGAAAATGGTTTTCTGACTGTATTAGTCGCCTAGGGCTGCTTTAATAGGTCTTGCAAAAGTACACATATACTTGTCTTATGACTCAGCAATTCCACCGTTAGTATTTACCCCAAAATGATAAGCAATTCTGCAAATATGCTTCAGTTTACATATTTAGA	0.143
ATCCACGAACCTGGCCCTGTCTGGTAACCACAGTGAACCATCGCAAGATACAGCACTATAATGACTCACTGTGCCCAGTTGGGCTGGAACCAGTGTTGACACATCACATCCTCAGGGACACGGAAGTGTACTTGTTTTTGGAGAGGGACTAGACCTTCATCCTTGAGGTGAAGAAGATTTTCTCTCCAGGGTG	0.113
AACAGTAACATGGCAACAGCTTAAATAAATAAGACAGTACATTGTTTAAGAAACAACTAATGTTCTGAGGTTTCAGTGATAACAACCACAAAGTAATCTTGCAAGGTGGTAAGAAATACCTGGCATGAATGCCTTTTGTTAAAAGTTGAACCACAAGTGCATTTTTTTTTACACTCTACTGAAGTATTTTTGT	0.336
TGCTCTTACATATGAGTGATAATTGGGCTGGATATAGAATTCTAGGTTGGAAATATTTTTTCTTTAAAATGTTGAAGTCACTGTCCTGTTTTTTGTTTGCTTTTTTGTGGGATTTTCTCCCTGTGTGCTATTGAGACTTCTGAATTCATTCTAATTCCTGACTGTGGCATGTGACTTGTTTTTCTCCTTCCCT	0.347
TGTGTTCAGTAAACTACATTTAAAAAAACTAGGAAAGACTATACTTTCAGGGGTCATTTCTATCTGAACAACCTGCTCCTGAATGACTAATGGGTAATTTATGAAATTAAGGCAGAAATAAACAAGTTCTTTGAAAACAGTGAGAACAAAGACACAACGTACCAAAATCTCTGGGACACAGCTAAAGCAGTGT	0.0551
CAATGGGGTAGGTCAGCCCCAGTGAACTCTCAAATGACCACTGAAGGACGTAGTGAGTGCAGAGTGTGATACCACTCACATCCCAGCCCAGACTGTTTGCTCAGCTGGGAGGAGTGTTGCAATTCTTCTACGTGCAGAGATAACACCCCTTCTCATGGCTTCAGGCATCACCTATCTCCTCTAGGCTGCGCTC	0.198
ATCTTCCCCCTCTTCCTTGCCCCACCAGCTCACCTTCCCGGGTTATTTGCAGATAGGAAAATAAATAAAGCCGGCATTCGTTAACGCAGTTCACGCGCATACTGCTGTTTGCTCTGGATCTAACATGGTCCTTTGGCGAGGCGTGGCTCCGGGAGAGCAAAGCACCGTGTCAGGGCCATGATCCGGGGTGGCC	0.352

Series 2
Target: CCNE1, cyclin fold, Cln2 fusion (human)
Method: yeast growth competition, sequencing
Medium: yeast
Notes: weak parent motif
Relative to: not given
Reading: higher = stronger binding
Starting sequence: WEE1 docking peptide (human); HKTFRKLRLFDTP
Substitution	normalised enrichment score
K6W	1.56
K2Y	-0.0251
L7I	1.21
T3H	1.19
L7N	0.429
R8E	0.618
F10K	-0.485
R5A	-1.1
D11T	0.925
F10W	0.727
F10E	0.357
R5Y	0.0609
F4K	0.387
F4V	0.0319
L7S	-0.757
H1P	0.736
H1G	0.0855
R5C	-0.0068
K6T	0.343
D11C	1.5
F4A	0.979

Series 3
Target: NFIL3, bZIP domain (human)
Method: DHFR protein complementation
Medium: yeast
Notes: single substitutions, most at no-binding floor
Relative to: wild-type JUN-FOS pair
Reading: higher = stronger binding
Starting sequence: JUN, bZIP domain (human); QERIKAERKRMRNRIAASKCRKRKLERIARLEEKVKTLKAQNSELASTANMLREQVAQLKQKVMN; partner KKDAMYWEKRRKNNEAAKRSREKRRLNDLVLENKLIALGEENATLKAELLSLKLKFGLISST
Substitution	binding fitness [natural log]
Q55D	-1.42
T37K	-1.14
A40Q	-1.38
E32T	-1.4
E33M	-1.15
K39H	-1.46
A46E	-1.56
V56M	-1.05
E32F	-1.54
K39W	-1.57
K34W	-1.49
L45R	-1.53
K36H	-1.56
E33K	-1.52
K36A	-1.44
S43A	-1.45
M51N	-1.3
L52K	-1.5
L31A	-1.52
L59R	-1.59
A29D	-1.43
L38C	-1.5
T37V	-1.37
Q41M	-1.47
E32H	-1.49

Series 4
Target: ABI1, truncated, D143A, DHFR fusion (Arabidopsis thaliana)
Method: DHFR PCA, deep sequencing
Medium: yeast
Notes: methotrexate growth selection, single substitutions
Added: (+)-ABA 200 µM
Relative to: wild-type fitted maximum
Reading: higher = stronger binding
Starting sequence: PYL1, truncated, DHFR fusion (Arabidopsis thaliana); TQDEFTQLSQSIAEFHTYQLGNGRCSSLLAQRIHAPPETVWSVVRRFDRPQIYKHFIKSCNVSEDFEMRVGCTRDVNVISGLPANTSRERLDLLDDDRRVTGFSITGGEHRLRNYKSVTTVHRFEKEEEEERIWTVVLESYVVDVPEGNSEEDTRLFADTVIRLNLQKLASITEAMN
Substitution	relative binding score
L164A	98.4%
V62C	93.7%
N177Q	93.6%
G108R	22.7%
T17D	81.3%
V143C	98.9%
F124V	113%
I79F	105%
E38H	89%
E38Q	84.3%
E38I	62.2%
R155Y	40.1%
T135M	-8.88%
E89H	-16.4%
L169Y	1.66%

Series 5
Target: RNA binding protein fox-1 homolog 2, RRM domain, GST-SBP tag (RBFOX2, Homo sapiens, UniProt O43251-10, residues 100-194)
Method: RNA Bind-n-Seq
Form: RNA
Medium: in vitro
Tested at: 365 nM
Notes: natural RNA segment, single round, ends assumed
Relative to: no-protein control
Reading: higher = stronger binding
Constant ends, left off below: GGGAGUUCUACAGUCCGACGAUC … UGGAAUUCUCGGGUGCCAA
Residues (chain): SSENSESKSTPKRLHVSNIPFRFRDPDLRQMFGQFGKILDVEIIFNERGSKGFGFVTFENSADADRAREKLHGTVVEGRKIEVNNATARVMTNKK
Sequence	RBNS enrichment (R)
GCCACCAAUUGUAGUGACCAGUUGCCUAAUGGUCACUUUCUGACUCCAGCCUUGCCAGCCUGACUCAGAUCCUCAUCUCUGGGCCUUUCUCCCUCCGAUGUUGGACUGCC	0.7
UAUGUGACUAGUAUUUAUCCUUUACUUCUGUGUUUUCUUAGGAUGUACACUUUUAGAGUUAUAGUGCCUGAUAAUAUUUUUUGAGAGCCUUUAAUAUGAUAUAGGAAGGC	0.519
CCAGGGCAGCCCCUGAGUCCACAUGCACACCUCAGCAGCCUAUAUUUAUUUGUUUCUGGUUUAGCCUCAAGGGCUGGAAGCUGGGCCUGUAUUGAAUAAACAGAAACCCA	0.886
UUGCUGGCAGUGCUAGCCAGGAAACAGAGUGACCAAGGGACAAGAAGGGACUUGCCUAAAGCCACCCAGCAACUCAGCAGCAGAACCAAGAUGGGCCCCAGGCUCCUCCA	0.448
UACAAAACAAUAACCCUUCUGGGGUUUCUUGUGGCGGUUGAAAUAGUCCCACAUGUGGUCAUCAGAAAAUAAGCCAUUCCUCAUACCAAUAUAGGAUCAGCUCCUUGACC	0.213
CUGGACACUUCAGUCCAGCUCUCUCCUGACUGGGGCUUGCGACUCACAGGAUUGCAUCGUCCCAGCUGCUAACUUGGGGCCGGGGCCCCUCCCUUCCACAUAUACCUUGG	0.269
GGCAAGUCUCAGGGGAAGCUCAUGUCUUUCUGCUUUACAAAGUGCUUCAAGCGUCAGCUCCAAGUGUCCUUAUGUCAGCAGGAUUUGUUUCCUUCUAGUCCCCCCCCCCC	0.258
UGUUGACCUGCUCAGGUGCACAUCUGUGAUGCCGACAGACUUGGUUCAGUUUUUAUAGUUGUGUUGGUUUUCUUAAUUGAUUUUUGUUAAUAAUACCUUAAUCCAGGGUA	0.55
CCUAGAAGGACUCUCCCCAACUGUCAAAGCUAAUGCUUUGAGCACUUAGCAAACCAGCAUAAGAGAAUCUACCCAUGGAAUGUUCUGGAAGGUGGGCAGUCCAGGUUACA	3.11
AGUUUGAUUUUUCUUUCCAUAUUUGAAUUAAUUUUUUCUGUUUGACUGGAAGGGGUUUUUGUAUAACUAAAACCUCAGCGCAUAAAGGAGAUUUAAAAGGAGCACAUGAU	0.494
CAGAAAAGCUAUGAUUCCAUUAGAAGACUUCUGGAGGUCCCCAGAUCUUUGGAGUGUGGGAAUGGAAGCUGCUUUGAGGCAAAGGCUCAUAAACCCUGCAAGUCUUCAUG	0.3
CAACCAAGAGGUGAGGACUGGAUCUCACGGAAGUGGCAUGGCCAUGACCCUGAGCUUCUGCCAGCCUGGAGGACCCGUGCUAAGUGGACCACGCCUUCCCGCUCGGCGGC	0.528

Repeated from above (series 5):
Sequence	RBNS enrichment (R)
GCCACCAAUUGUAGUGACCAGUUGCCUAAUGGUCACUUUCUGACUCCAGCCUUGCCAGCCUGACUCAGAUCCUCAUCUCUGGGCCUUUCUCCCUCCGAUGUUGGACUGCC	0.7
UUGCUGGCAGUGCUAGCCAGGAAACAGAGUGACCAAGGGACAAGAAGGGACUUGCCUAAAGCCACCCAGCAACUCAGCAGCAGAACCAAGAUGGGCCCCAGGCUCCUCCA	0.448
UGUUGACCUGCUCAGGUGCACAUCUGUGAUGCCGACAGACUUGGUUCAGUUUUUAUAGUUGUGUUGGUUUUCUUAAUUGAUUUUUGUUAAUAAUACCUUAAUCCAGGGUA	0.55
UAUGUGACUAGUAUUUAUCCUUUACUUCUGUGUUUUCUUAGGAUGUACACUUUUAGAGUUAUAGUGCCUGAUAAUAUUUUUUGAGAGCCUUUAAUAUGAUAUAGGAAGGC	0.519
CCAGGGCAGCCCCUGAGUCCACAUGCACACCUCAGCAGCCUAUAUUUAUUUGUUUCUGGUUUAGCCUCAAGGGCUGGAAGCUGGGCCUGUAUUGAAUAAACAGAAACCCA	0.886
CUGGACACUUCAGUCCAGCUCUCUCCUGACUGGGGCUUGCGACUCACAGGAUUGCAUCGUCCCAGCUGCUAACUUGGGGCCGGGGCCCCUCCCUUCCACAUAUACCUUGG	0.269
